Results pooled from the literature.
Each line is one published result; not all experiments were run side by side. Several values in a cell are separate wells, animals, samples, runs or records. ± gives the spread as reported.
Kir3.1/Kir3.2: Kir3.1/Kir3.2 (Homo sapiens, UniProt P48051+P48549)
FFAR4: Free fatty acid receptor 4 (FFAR4, Homo sapiens, UniProt Q5NUL3)
TRPM8: Transient receptor potential cation channel subfamily M member 8 (TRPM8, Homo sapiens, UniProt Q7Z2W7)
Maoa: Amine oxidase [flavin-containing] A (Maoa, Rattus norvegicus, UniProt P21396)
GAP50: Glideosome-associated protein 50 (GAP50, Plasmodium falciparum, UniProt Q8I2X3)
NADH dehydrogenase [ubiquinone] iron-sulfur protein 7, mitochondrial/NADH dehydrogenase [ubiquinone] iron-sulfur protein 2, mitochondrial/MT-ND1: NADH dehydrogenase [ubiquinone] iron-sulfur protein 7, mitochondrial/NADH dehydrogenase [ubiquinone] iron-sulfur protein 2, mitochondrial/MT-ND1 (Homo sapiens, UniProt O75251+O75306+P03886)
PDE1C isoform PDE1C2: Dual specificity calcium/calmodulin-dependent 3',5'-cyclic nucleotide phosphodiesterase 1C, isoform PDE1C2 (PDE1C, Homo sapiens, UniProt Q14123)

Nc1ncnc2c1ncn2[C@@H]1O[C@H](COP(=O)(O)OP(=O)(O)OP(=O)(O)O)[C@@H](O)[C@H]1O — Km (Hexokinase-3 (HK3, Homo sapiens, UniProt P52790, D264A/R265A); substrate; mutant D264A/R265A, added: glucose 0.5 mM): 1900 ± 100 µM
CN(C)c1ccc2nc3ccc(=[N+](C)C)cc-3sc2c1 — fibrillization half-time (Microtubule-associated protein tau, 2N4R isoform (MAPT, Homo sapiens, UniProt P10636, del597-597); ThT fluorescence; 0.1-fold over protein, added: tau ΔK280 10 µM; baseline: untreated): 56 ± 7%
O=C(COc1ccc(C(F)(F)F)cc1C(F)(F)F)Nc1cc(C2CCC2)nn1C1CCC(F)(F)CC1 — Emax (Kir3.1/Kir3.2; thallium flux, activator; HEK293; baseline: standard compound): 25%
CCCNc1cc(=O)[nH]c(=O)[nH]1 — inhibition (FFAR4; antagonist, β-arrestin recruitment; CHO cells; 10 µM, added: 4 µM TUG-891): 21 ± 3%
O=C(NC1CCC1)c1ccc2nc(-c3cccc(NS(=O)(=O)NCCN4CCCCC4)c3)cn2c1 — protein level (Protein ENL (MLLT1, Homo sapiens, UniProt Q03111); degrader, immunoblot, item: MLLT1; 10 µM, 4 h; baseline: DMSO control): 9%
COc1cccc2c(Nc3ccc4[nH]c(C(=O)N/N=C/c5ccc(SC)cc5)cc4c3)cc(C)nc12 — activation (Nuclear receptor subfamily 4 group A member 2, LBD (Homo sapiens, UniProt P43354); reporter gene, Gal4 hybrid reporter; 3 µM; baseline: vehicle): 0.59 fold
CC1=C[C@H](O)CC(C)(C)[C@H]1/C=C/C(C)=C/C=C/C(C)=C/C=C/C=C(C)/C=C/C=C(C)/C=C/C1=C(C)C[C@@H](O)CC1(C)C — binding stoichiometry (Beta-lactoglobulin (LGB, Bos taurus, UniProt P02754); isothermal titration calorimetry; concentration not given): 2
CCCCCCCCCNc1cc(=O)n(C)c(=O)[nH]1 — activation (FFAR4; agonist, β-arrestin recruitment; CHO cells; 10 µM): 0%
COc1cc(C(=O)NS(=O)(=O)c2ccccc2C)ccc1Cc1cn(C)c2ccc(NC(=O)OC3CCCC3)cc12 — inhibition time constant (LRRC8A/LRRC8C (Homo sapiens, UniProt Q8IWT6+Q8TDW0); whole-cell patch clamp; HCT116 LRRC8-/- expressing LRRC8A/C; 30 µM, +100 mV): 400 s
Cn1ncc2c(N3CCCCC3)nc(Nc3ccccc3)nc21 — Hill slope (3-oxoacyl-[acyl-carrier-protein] reductase FabG (fabG, Pseudomonas aeruginosa, UniProt O54438); enzyme activity, inhibitor, NADPH fluorescence; reverse reaction, added: 3-OH-decanoyl-NAC, NADP): 1.5
CC[C@@H](C)[C@@H](NC(=O)[C@@H](Cc1ccc(O)cc1)NC(=O)[C@H]1CCCN1C(=O)[C@@H](CCCNC(=N)N)NC(=O)[C@H](N)Cc1c[nH]cn1)C(=O)N[C@H](C)C(=O)N[C@H](Cc1c[nH]cn1)C(=O)N[C@H](CCCNC(=N)N)C(=O)N[C@@H](C(=O)N[C@H](Cc1ccc(O)cc1)C(=O)N[C@H](CO)C(=O)N[C@H](Cc1ccccc1)C(N)=O)C(C)C — surface expression (Transferrin receptor protein 1 (Tfrc, Mus musculus, UniProt Q62351); flow cytometry; DC2.4; 48 h, pH 7.4, unit not given; baseline: 0 h): 0.423 and 0.436
O=C(O)C1CCCNC1 (centres unmarked) — normalised MST signal (SLC6A6 (Homo sapiens, UniProt P31641, Y138A); binding, microscale thermophoresis; 1.95 µM, room temperature, added: 50 nM labelled protein; higher = more binding): 0.0508
Nc1ccc(C(=O)O)cc1 — current density (BEST1, with wild-type BEST1 (Homo sapiens, UniProt O76090, A10T); whole-cell patch clamp; HEK293 co-expressing WT and A10T mutant; concentration not given, membrane potential 60 mV): 8.89 pA/pF and 20.4 pA/pF and 17.1 pA/pF and 22.7 pA/pF and 9.35 pA/pF and 33.3 pA/pF
O=S(=O)(c1cccc2cnccc12)N1CCCNCC1 — remaining activity (TRPM8; antagonist; HEK293; 5 µM; baseline: control): 105 ± 2.35%
[O-][S+]1CCCCS1 (centres unmarked) — target engagement (SOD1 (Homo sapiens, UniProt P00441, G94A); intact protein LC-MS; SOD1 G93A transgenic mice, whole blood; oral, 150 mg/kg, 48 h, mean of two mice): 25.9 % cross-linked dimer
COc1ccc(CN)cc1 — kcat (Maoa; substrate; rat; pH 9.0, α,α-protio substrate): 0.4667 ± 0.00367 s⁻¹
c1coc(CNc2nc(N3CCCCC3)nc3ccccc23)c1 — koff (GAP50; binding, surface plasmon resonance; 1:1 binding model): 0.95 s⁻¹
O=c1cc(NCCCCCCO)[nH]c(=O)[nH]1 — activation (FFAR4; agonist, β-arrestin recruitment; CHO cells; 10 µM): 1%
NCCCCCC(=O)O — thermal shift (uncharacterized protein (Pelagibacter ubique, UniProt Q4FKZ8); differential scanning fluorimetry; Candidatus Pelagibacter ubique; in-house screen): 2.07 °C
NC(=O)NOCCCCCCCCCCCCCC[P+](c1ccccc1)(c1ccccc1)c1ccccc1.O=C([O-])C(F)(F)F — oxygen consumption rate (NADH dehydrogenase [ubiquinone] iron-sulfur protein 7, mitochondrial/NADH dehydrogenase [ubiquinone] iron-sulfur protein 2, mitochondrial/MT-ND1; complex I-dependent respiration, Seahorse XF96; HCT-116; 0.75 µM, 24 h; baseline: control): 57.9 ± 5.35%
Nc1ncnc2c1ncn2[C@@H]1O[C@H](CO[P@](=O)(O)O[P@](=O)(O)O[P@@](=O)(O)S)[C@@H](O)[C@H]1O — ΔH (GUK1 (Homo sapiens, UniProt Q16774, K17A); binding, ITC): -3.29 ± 0.36 kcal/mol
O=C(Nc1nnc(-c2ccc(Cl)s2)o1)c1ccc(Cl)s1 — kon (GAP50; binding, surface plasmon resonance; 1:1 binding model): 37200 M⁻¹ s⁻¹
COc1ccc(CCNc2cc(=O)[nH]c(=O)[nH]2)cc1OC — activation (FFAR4; agonist, β-arrestin recruitment; CHO cells; 10 µM): 1 ± 1%
NC(=O)NO — oxygen consumption rate (NADH dehydrogenase [ubiquinone] iron-sulfur protein 7, mitochondrial/NADH dehydrogenase [ubiquinone] iron-sulfur protein 2, mitochondrial/MT-ND1; complex I-dependent respiration, Seahorse XF96; HCT-116; 500 µM, 24 h; baseline: control): 82.1 ± 9.12%
N[C@@H](Cc1ccccc1)C(=O)O — cAMP level (ADRB1 (Homo sapiens, UniProt P08588); HEK293 expressing β1AR; 300 µM): 18.3 pmol/mg protein and 18.9 pmol/mg protein and 22 pmol/mg protein and 29.3 pmol/mg protein and 17.3 pmol/mg protein and 17.2 pmol/mg protein
CC(C)CCNc1cc(=O)[nH]c(=O)[nH]1 — activation (FFAR4; agonist, β-arrestin recruitment; CHO cells; 10 µM): 0%
C[C@]12C[C@H](O)[C@H]3[C@@H](CCC4=CC(=O)CC[C@@]43C)[C@@H]1CC[C@@H]2C(=O)CO — maximal response (NR3C2 (Homo sapiens, UniProt P08235); reporter gene, agonist; baseline: baseline): 52 fold
N#Cc1ccsc1NC(=O)COc1cc(Cl)ccc1Cl — Emax (Kir3.1/Kir3.2; thallium flux, activator; HEK293; baseline: standard compound): < 10%
Cc1ccc2c(c1C)NC(=O)[C@]21NN=C(c2ccccc2)S1 — koff (GAP50; binding, surface plasmon resonance; 1:1 binding model): 0.0017 s⁻¹
CCCCCCCCNc1[nH]c(=O)[nH]c(=O)c1Br — agonist effect (FFAR4; agonist, β-arrestin recruitment; CHO cells; 10 µM; baseline: 30 µM TUG-891): 0 ± 1%
NC(=O)NOCCCCCCCCCC[P+](c1ccccc1)(c1ccccc1)c1ccccc1.O=C([O-])C(F)(F)F — oxygen consumption rate (NADH dehydrogenase [ubiquinone] iron-sulfur protein 7, mitochondrial/NADH dehydrogenase [ubiquinone] iron-sulfur protein 2, mitochondrial/MT-ND1; complex I-dependent respiration, Seahorse XF96; HCT-116; 1 µM, 24 h; baseline: control): 87.4 ± 3.09%
C=CC(=O)N1CCC(COCC(=O)N2CCN(c3nc(-c4cnc(N)nc4C(F)F)nc(N4CCOC[C@@H]4C)n3)CC2)CC1 — remaining binding (PAK2 (Homo sapiens, UniProt Q13177); KINOMEscan; 1 µM): 97%
Nc1ncnc2c1ncn2[C@@H]1O[C@H](COP(=O)(O)OP(=O)(O)OP(=O)(O)O)[C@@H](O)[C@H]1O — normalized current (P2X purinoceptor 7 (P2rx7, Rattus norvegicus, UniProt Q64663, I214A/R125A); ion current, agonist, two-electrode voltage clamp; Xenopus laevis oocytes; 3.3 µM; baseline: highest concentration response): 0
Cc1[nH]c(N)nc1CCC(=O)c1cc(F)cc(F)c1.Cl — Hill coefficient (HVCN1 (Homo sapiens, UniProt Q96D96, F150A); proton current, inhibitor, inside-out patch clamp): 1.24 ± 0.08
CCCCCCNc1[nH]c(=O)[nH]c(=O)c1Br — agonist effect (FFAR4; agonist, β-arrestin recruitment; CHO cells; 10 µM; baseline: 30 µM TUG-891): 0%
O=C(Nc1ccc(O)c(O)c1)c1cc2ccccc2oc1=O — ThS fluorescence (MAPT (Homo sapiens, UniProt P10636); heparin-induced aggregation; 100 µM; baseline: untreated): 27.6 ± 2.8%
CCCCCCNc1[nH]c(=O)[nH]c(=O)c1N=O — activation (FFAR4; agonist, β-arrestin recruitment; CHO cells; 10 µM): 1 ± 1%
C[S+]([O-])c1ccc(-c2nc(-c3ccc(F)cc3)c(-c3ccncc3)[nH]2)cc1 (centres unmarked) — remaining activity (TRPM8; antagonist; HEK293; 5 µM; baseline: control): 107 ± 6.3%
CC[C@@H]1[C@H](F)C(=O)N[C@@H]1COc1nccc2cc(C(N)=O)c(OC)cc12 — inhibition (TBK1 (Homo sapiens, UniProt Q9UHD2); ATP-site probe binding, ActivX profiling; THP-1 cell lysate; 0.01 mM, Lys1 site): 1.3%
CC1=C(/C=C/C(C)=C/C=C/C(C)=C/C=O)C(C)(C)CCC1 — relative koff (Rhodopsin (RHO, Bos taurus, UniProt P02699, I189P); retinal release, Trp FRET; lipid bicelles; 28 °C, I189P mutant; baseline: wild-type rhodopsin): 12.9 ± 4.2
Oc1ccc(/C=C/c2cc(O)cc(O)c2)cc1 — ΔG (O-methyltransferase (Sorghum bicolor, UniProt A0A1B6PFV1); ITC two-site model; exothermic site, added: sinefungin): -10.4 kcal/mol
C#CCN(CCCN1CCN(C2CCCCC2)CC1)c1ccc(C(=O)c2ccccc2)cc1 — Ki ratio (TMEM97 (Homo sapiens, UniProt Q5BJF2); radioligand binding; RT-4 cell membranes; baseline: sigma1 Ki over sigma2 Ki): 8.39
Nc1ccc2ncnc(NCCc3ccc(Oc4ccccc4)cc3)c2c1 — remaining activity (TRPM8; antagonist; HEK293; 5 µM; baseline: control): 74.5 ± 11.3%
CN1CCN(c2cc(-c3ccncc3)c(-c3ccc4ccccc4c3)nn2)CC1 — activation (Glucagon receptor (GCGR, Homo sapiens, UniProt P47871); agonist, FLIPR; 12.5 µM): 10.6%
O=C(COP(=O)(O)O)[C@@H](O)[C@H](O)[C@H](O)COP(=O)(O)O — thermal stability ratio (Large ribosomal subunit protein uL4 (Homo sapiens, UniProt P36578); thermal proteome profiling, item: RPL4; HepG2 cell lysate; concentration not given, 57 over 37 °C, mean; baseline: compound over control): 0.733
CCOc1ccccc1/C=C1\OC(=O)c2c1cc(C)[nH]c2=O — binding free energy (PDE1C isoform PDE1C2; enzyme activity, inhibitor; added: 3H-cGMP substrate): -9.31 kcal/mol
O=C(COc1cc(Cl)ccc1Cl)Nc1cc(C2CC2)nn1C1CCC(F)(F)CC1 — Emax (Kir3.1/Kir3.2; thallium flux, activator; HEK293; baseline: standard compound): 51%
O=C(NCc1ccc(CNS(=O)(=O)c2ccccc2)cc1)c1cccc(F)c1 — EC (CXCR4 (Homo sapiens, UniProt P61073); binding, inhibitor, competitive binding; MDA-MB-231; added: biotinylated TN14003): 100 nM
COc1cccc(/C=C2\OC(=O)c3c2cc(C)[nH]c3=O)c1 — ligand efficiency (PDE1C isoform PDE1C2; enzyme activity, inhibitor; added: 3H-cGMP substrate): 0.4
NCc1ccc(Br)cc1 — kcat of deuterated substrate (Maoa; substrate; pH 7.5, 25 °C): 0.0783 ± 0.00167 s⁻¹
Cc1nnc(NCc2cccc(Cl)c2)c2ccccc12 — kon (GAP50; binding, surface plasmon resonance; 1:1 binding model): 25800 M⁻¹ s⁻¹
O=c1nc(SCc2cc(F)cc(C(F)(F)F)c2)nc(SCc2ccc3nc(OCCN4CCOCC4)ccc3c2)[nH]1 — mean linear DNA (TOP2A (Homo sapiens, UniProt P11388); DNA cleavage; 31.25 µM): 0%
O=C(ON1C(=O)CCC1=O)c1cc(C(F)(F)F)cc(C(F)(F)F)c1 — kobs (CD209 antigen (CD209, Homo sapiens, UniProt Q9NNX6); covalent labelling, intact protein MS; 200 µM): 0.283 min⁻¹
